Assay results from different studies.
Numbered parts are unrelated; each lists some results of a single study. Substitutions count along the parent as printed.

Sample 1
Target: Histone acetyltransferase KAT6A, winged helix 1, GST fusion (KAT6A, Homo sapiens, UniProt Q92794, residues 1-85)
Technique: protein binding microarray
Molecule type: double-stranded DNA, one strand shown
Matrix: in vitro
Tested at: not given
Setting: 8-mer, flanks averaged, mean of 2 arrays, mostly near background
Baseline: not given
Reading: higher = stronger binding
Target sequence (chain): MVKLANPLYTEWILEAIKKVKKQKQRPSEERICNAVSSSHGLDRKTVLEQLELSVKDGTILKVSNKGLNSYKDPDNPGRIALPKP
The E-score of `CGCACTAA` is reported as 0.0751.
For `GGGCAGGA`, the E-score was -0.137.
`CTATAATA` gave an E-score of -0.0741.
With `AAGTCTTG` the E-score was -0.00475.
For `CTGCACAG`, the E-score was 0.0122.
For `CATGCATG`, the E-score was -0.0808.
For `GCACGCGC`, the E-score was 0.364.

Sample 2
Target: CCND1, cyclin fold, Cln2 fusion (human)
Technique: yeast growth competition, sequencing
Matrix: yeast
Setting: weak parent motif
Baseline: not given
Reading: higher = stronger binding
Parent: WEE1 docking peptide (human); HKTFRKLRLFDTP; partner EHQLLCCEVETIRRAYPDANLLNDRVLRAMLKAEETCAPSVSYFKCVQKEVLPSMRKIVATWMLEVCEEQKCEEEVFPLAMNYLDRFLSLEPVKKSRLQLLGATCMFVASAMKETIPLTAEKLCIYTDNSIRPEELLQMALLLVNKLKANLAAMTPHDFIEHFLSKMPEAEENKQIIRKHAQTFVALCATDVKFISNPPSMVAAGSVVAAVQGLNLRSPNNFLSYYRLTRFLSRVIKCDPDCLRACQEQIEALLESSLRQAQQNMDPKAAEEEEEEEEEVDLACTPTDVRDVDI
`HKEFRKLRLFDTP [T3E]`: “normalised enrichment score” -0.693.
Under “normalised enrichment score”, `HKTNRKLRLFDTP [F4N]` is recorded as 0.178.
`HLTFRKLRLFDTP [K2L]` — result for “normalised enrichment score”: 0.388.
`FKTFRKLRLFDTP [H1F]`: “normalised enrichment score” -0.227.

Sample 3
Target: TAR DNA-binding protein 43, full length, His tag (TARDBP, Homo sapiens, UniProt Q13148, residues 1-414)
Technique: RNA Bind-n-Seq
Molecule type: RNA
Matrix: in vitro
Tested at: 20 nM
Setting: 6-mer, flanks averaged, single round
Added: 150 mM KCl
Baseline: input library
Reading: higher = stronger binding
`GGGUAU`: “6-mer enrichment (R)” 1.83.
Under “6-mer enrichment (R)”, `UACGAA` is recorded as 0.7.
`CUCACA` — result for “6-mer enrichment (R)”: 0.571.
Under “6-mer enrichment (R)”, `UUCGAA` is recorded as 0.62.
Under “6-mer enrichment (R)”, `GAAUGA` is recorded as 1.18.

Mixed results
The fold induction of `PhoQ, residues 284 288 289 292 302 303 SQSLSM` is reported as 15.8 (PhoP, residues 12 14 15 18 19 VQGLL (Escherichia coli, UniProt P23836); Sort-seq, measured: YFP reporter; E. coli; PhoQ-PhoP variant library, added: 10 µM Mg2+; baseline: high Mg2+ state, higher = stronger signaling).
